Results gathered from unrelated publications.
Numbered parts are unrelated; each lists some results of a single study. Changes are numbered by the printed parent chain.

Set 1
Target: Prothrombin, mature alpha-thrombin (F2, Homo sapiens, UniProt P00734)
Technique: aptamer microarray, sandwich
Form: DNA with 2'F-ANA
Matrix: in vitro
Tested at: 200 nM
Notes: whole 15-mer aptamer, many near background
With: Cy3 exosite-II aptamer, 400 nM
Direction: higher = stronger binding
Sequence: GGTTGGTGTGGTTGG
| Modification | mean fluorescence intensity |
| --- | --- |
| 2'F-ANA at 2 3 5 6 8 9 14 | 51.5 a.u. |
| 2'F-ANA at 1 2 4 5 7 9 10 15 | 64.3 a.u. |
| 2'F-ANA at 3 6 7 8 11 12 15 | 1080 a.u. |
| 2'F-ANA at 4 5 7 9 10 11 15 | 48 a.u. |
| 2'F-ANA at 7 9 12 13 14 15 | 217 a.u. |
| 2'F-ANA at 1 2 3 6 9 12 13 14 | 79 a.u. |
| 2'F-ANA at 3 6 7 9 10 15 | 423 a.u. |
| 2'F-ANA at 1 2 3 4 6 10 13 | 50.4 a.u. |

Set 2
Target: inorganic phosphate, free oxyanion
Technique: microfluidic competitive inhibition
Matrix: in vitro, cell-free expressed
Tested at: not given
Notes: derived from inhibition constants, unchanged parent 615000 nM
Direction: lower = stronger binding
Parent: PafA, mature enzyme, eGFP fusion (Elizabethkingia meningoseptica, UniProt Q9KJX5); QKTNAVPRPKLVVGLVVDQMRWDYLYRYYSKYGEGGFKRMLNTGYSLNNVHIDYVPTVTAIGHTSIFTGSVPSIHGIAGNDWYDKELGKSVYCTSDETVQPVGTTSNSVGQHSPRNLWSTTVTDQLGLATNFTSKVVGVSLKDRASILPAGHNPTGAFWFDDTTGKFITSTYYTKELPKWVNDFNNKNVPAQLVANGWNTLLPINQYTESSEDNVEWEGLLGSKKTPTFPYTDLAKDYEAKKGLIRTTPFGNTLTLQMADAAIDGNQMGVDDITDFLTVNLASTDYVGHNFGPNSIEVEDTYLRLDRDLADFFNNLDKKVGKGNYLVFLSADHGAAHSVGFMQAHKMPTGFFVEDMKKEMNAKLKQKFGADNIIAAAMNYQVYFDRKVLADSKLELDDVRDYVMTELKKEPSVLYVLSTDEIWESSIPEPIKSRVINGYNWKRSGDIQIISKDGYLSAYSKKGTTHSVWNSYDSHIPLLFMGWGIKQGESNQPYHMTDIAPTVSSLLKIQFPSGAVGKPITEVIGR
| Change | phosphate dissociation constant [µM] |
| --- | --- |
| A150V | 645 |
| F250G | 477 |
| W441G | 419 |
| Q257V | 638 |

Set 3
Target: CCNB1, cyclin fold, Cln2 fusion (human)
Technique: yeast growth competition, sequencing
Matrix: yeast
Notes: strong parent motif
Baseline: not given
Direction: higher = stronger binding
Parent: viral docking peptide; YKVKRRLVFGADD
| Change | normalised enrichment score |
| --- | --- |
| V3G | 0.0159 |
| L7N | 0.674 |
| G10W | 2.42 |
| G10R | 2.53 |
| L7Q | -0.0627 |
| R5K F9L | 0.459 |
| K4M | 1.43 |
| A11T | 4.75 |
| R6T | 0.898 |
| F9Y | 2.14 |
| R5K | 3.35 |
| V3I | 2.89 |
| G10F | 2.45 |
| L7V | 0.468 |
| R5A L7A | 0.629 |
| K4R | 4.71 |
| K2A | 3.82 |

Set 4
Target: UDP-N-acetylglucosamine--peptide N-acetylglucosaminyltransferase 110 kDa subunit (OGT, Homo sapiens, UniProt O15294)
Effect on: binding
Technique: phage display NGS
Form: peptide
Notes: panning round 2
Baseline: input library
Construct (O15294 1-1046): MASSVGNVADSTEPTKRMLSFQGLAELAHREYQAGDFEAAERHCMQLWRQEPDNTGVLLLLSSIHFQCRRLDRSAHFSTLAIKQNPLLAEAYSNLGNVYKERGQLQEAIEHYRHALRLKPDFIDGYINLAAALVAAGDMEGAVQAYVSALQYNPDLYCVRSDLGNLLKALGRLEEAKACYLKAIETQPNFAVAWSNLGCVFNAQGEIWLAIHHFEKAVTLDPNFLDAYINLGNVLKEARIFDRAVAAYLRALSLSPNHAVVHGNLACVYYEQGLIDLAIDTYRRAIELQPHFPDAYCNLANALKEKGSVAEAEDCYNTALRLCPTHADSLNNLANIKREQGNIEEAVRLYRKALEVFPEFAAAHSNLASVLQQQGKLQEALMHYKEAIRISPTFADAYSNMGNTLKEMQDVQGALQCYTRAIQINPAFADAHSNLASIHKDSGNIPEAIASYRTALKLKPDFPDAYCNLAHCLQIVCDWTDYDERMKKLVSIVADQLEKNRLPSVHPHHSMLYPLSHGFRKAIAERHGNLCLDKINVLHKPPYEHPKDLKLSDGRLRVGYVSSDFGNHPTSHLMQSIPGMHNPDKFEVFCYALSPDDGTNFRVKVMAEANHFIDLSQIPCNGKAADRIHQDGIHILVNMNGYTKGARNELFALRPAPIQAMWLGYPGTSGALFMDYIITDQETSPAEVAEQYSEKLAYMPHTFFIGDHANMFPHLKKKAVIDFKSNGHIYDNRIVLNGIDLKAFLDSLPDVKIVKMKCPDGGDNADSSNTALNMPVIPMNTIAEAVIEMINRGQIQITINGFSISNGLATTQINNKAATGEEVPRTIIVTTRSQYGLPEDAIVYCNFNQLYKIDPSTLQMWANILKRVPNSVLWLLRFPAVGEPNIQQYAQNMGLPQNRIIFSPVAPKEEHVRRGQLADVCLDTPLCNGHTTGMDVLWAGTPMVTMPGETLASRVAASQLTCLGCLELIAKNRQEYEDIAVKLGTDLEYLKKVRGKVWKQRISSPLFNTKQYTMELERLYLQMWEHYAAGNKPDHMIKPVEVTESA
| Sequence | minimum log2 enrichment ratio |
| --- | --- |
| QDTTFAPFYQIIAPP | 3.25 |
| DEHMIPNHHHHFTIE | 2.54 |
| QFLPSYQIQVDLPHY | 2.82 |
| DPRHHTHYPIHTMGY | 2.65 |
| DLTHEHQIHHHYNRD | 2.34 |
| HWVGTTHHSTMHNHD | 2.84 |
